Assay results of several laboratories.
± marks the error that the study gave.
EZH2: Histone-lysine N-methyltransferase EZH2 (EZH2, Homo sapiens, UniProt Q15910)
CNR2: Cannabinoid receptor 2 (CNR2, Homo sapiens, UniProt P34972)

| SMILES | target or system | assay | system | conditions | scale | measurement | result |
| --- | --- | --- | --- | --- | --- | --- | --- |
| CC(=O)N[C@@H](CCC(=O)O)C(=O)N[C@@H](CCC(N)=O)C(=O)N[C@H](C(=O)N[C@@H](CCC(=O)O)C(=O)N[C@@H](CC(C)C)C(=O)N[C@@H](CCC(=O)O)C(=O)N[C@@H](Cc1ccccc1)C(=O)N[C@@H](CC(=O)O)C(=O)O)C(C)C | Beta sliding clamp (Escherichia coli, UniProt P0A988) | isothermal titration calorimetry | – | concentration not given, pH 7.4, 25 °C | – | binding enthalpy | -9.8 ± 1.2 kcal/mol |
| O=C1NC2(CC2)COc2ncc(F)cc2[C@H]2COCCN2c2ccn3ncc1c3n2 | – | – | Sprague-Dawley rat, female, serum | oral, 20 mg/kg/day, 4 weeks daily, end of recovery period | – | pancreatic amylase activity | 1450 ± 213 U/L |
| CC(C)CC(C(=O)N1CC2(CC1C#N)C(=O)Nc1ccccc12)N(C)C(=O)c1cc2c(F)cc(F)c(F)c2[nH]1 (stereo not shown) | Papain (Carica papaya, UniProt P00784) | enzyme activity, inhibitor | – | – | – | Hill slope | -0.42 |
| Cc1ccc2c(C(C[N+](=O)[O-])c3cccs3)c(-c3ccccc3)[nH]c2c1 (stereo not shown) | Cannabinoid receptor 1 (CNR1, Homo sapiens, UniProt P21554, Y397F) | Gαi1-γ2 dissociation, BRET | – | – | – | Emax | 56.6 ± 0.99% |
| CCC[C@H](C(=O)c1ccccc1)N1CCCC1 | Sodium-dependent dopamine transporter (SLC6A3, Homo sapiens, UniProt Q01959) | DAT-mediated current recovery, electrophysiology | human DAT-expressing cells | 100 µM, with: 30 µM dopamine | – | koff | 0.051 s⁻¹ |
| COC1CN([C@H]2CC[C@H]([C@@H](C)n3c(C)c(C(=O)NCc4c(SC)cc(C)[nH]c4=O)c4ccccc43)CC2)C1 | EZH2 | binding, TR-FRET | – | with: H3K27me3 peptide | – | kon | 310000 M⁻¹ s⁻¹ |
| CS(C)(=O)=Nc1ccc(-c2ccc(-c3nc4cc(O[C@@H]5CO[C@H]6[C@@H]5OC[C@H]6O)[nH]c4cc3F)cc2)cc1 | Type-1 angiotensin II receptor (AGTR1, Homo sapiens, UniProt P30556) | calcium signal, antagonist | – | 10 µM | – | inhibition | 32% |
| Cc1sc2c(c1C)C(c1ccc(Cl)cc1)=N[C@@H](CC(=O)OC(C)(C)C)c1nnc(C)n1-2 | Bromodomain-containing protein 3, BD2 (BRD3, Homo sapiens, UniProt Q15059) | isothermal titration calorimetry | – | 15 °C, reverse titration | – | TΔS | 4.41 kcal/mol |
| O=C1NC(=O)c2c1c1cc(F)c[n+]3c1c1c2c2cc(O)ccc2[n]1[Ru-4]312([N]=C=S)[S+]3CC[S+]1CC[S+]2CC3 (stereo not shown) | Ephrin type-A receptor 8 (EPHA8, Homo sapiens, UniProt P29322) | enzyme activity | – | 100 nM, human enzyme, with: 10 µM ATP | baseline: untreated | remaining activity | 136% |
| CSc1cc(C)[nH]c(=O)c1CNC(=O)c1c(C)n([C@H](C)C2CCN(CC(F)(F)F)CC2)c2ccccc12 | EZH2 | binding, TR-FRET | – | – | – | residence time | 660 min |
| COc1ccccc1C(C[N+](=O)[O-])c1c(-c2ccccc2)[nH]c2ccccc12 (stereo not shown) | Cannabinoid receptor 1 (CNR1, Homo sapiens, UniProt P21554, Y172A) | Gαi1-γ2 dissociation, BRET | – | – | – | Emax | 80.3 ± 2.54% |
| CCCCCn1cc(C(=O)c2cccc3ccccc23)c2ccccc21 | CNR2 | agonist, BRET | – | – | baseline: Gαi1 over β-arrestin 2, reference agonist | bias factor (ΔΔlog(Emax/EC50)) | 0.12 |
| COC1CN([C@H]2CC[C@H]([C@@H](C)n3c(C)c(C(=O)NCc4c(Cl)cc(C)[nH]c4=O)c4ccccc43)CC2)C1 | EZH2 | binding, TR-FRET | – | with: H3K27me3 activating peptide | – | residence time | 162 min |
| CC[C@H](C)[C@H](NC(=O)[C@H](CO)NC(=O)[C@H](CC(N)=O)NC(=O)[C@H](CC(C)C)NC(=O)[C@H](Cc1ccc(O)cc1)NC(=O)[C@H](CCCCN)NC(=O)[C@H](CCCCN)NC(=O)[C@@H](NC(=O)[C@H](C)NC(=O)[C@H](CCSC)NC(=O)[C@H](CCC(N)=O)NC(=O)[C@H](CCCCN)NC(=O)[C@H](CCCNC(=N)N)NC(=O)[C@H](CC(C)C)NC(=O)[C@H](CCCNC(=N)N)NC(=O)[C@@H](NC(=O)[C@H](Cc1ccc(O)cc1)NC(=O)[C@H](CC(N)=O)NC(=O)[C@H](CC(=O)O)NC(=O)[C@@H](NC(=O)[C@H](Cc1ccccc1)NC(=O)[C@@H](NC(=O)[C@H](C)NC(=O)[C@H](CC(=O)O)NC(=O)[C@H](CO)NC(=O)[C@@H](N)Cc1c[nH]cn1)C(C)C)[C@@H](C)O)[C@@H](C)O)C(C)C)C(=O)N[C@@H](CC(C)C)C(=O)N[C@@H](CC(N)=O)C(N)=O | Pituitary adenylate cyclase-activating polypeptide type I receptor (ADCYAP1R1, Homo sapiens, UniProt P41586) | calcium mobilization, agonist, Fluo-8 AM | COS-7 | AUC over 2 min | – | Emax | 61 ± 6% |
| COc1ccccc1-c1n[nH]c2nc(NC3CCN(C(=O)Cc4ccc(F)cc4F)CC3)ncc12 | – | bead binding, competition bead pull-down, measured: LINJ.36.4380 | Leishmania donovani axenic amastigote extract | 10 µM | baseline: vehicle | relative abundance | 0.87 |
| CN(C)[C@H]1C[C@@]23CC[C@@]4(O2)C(=CC[C@]2(C)[C@@H](c5ccc6ccncc6c5)CC[C@H]24)C=C3[C@@H](O)[C@@H]1O | Interleukin-1 receptor-associated kinase 1 (IRAK1, Homo sapiens, UniProt P51617) | ATP probe labelling, inhibitor, KiNativ profiling | – | 0.1 µM | – | inhibition | -4.4% |
| Nc1ccc(/C=C/C(=O)N2CCc3c(oc4c(-c5ccc(F)cc5)cc(-c5ccc(C(=O)N6CCC(F)(F)CC6)cn5)cc34)C2)cn1 | Tyrosine-protein kinase receptor UFO (AXL, Homo sapiens, UniProt P30530) | binding, competition with immobilised ligand | – | 1 µM | – | remaining binding | 100% |
| CC(C)[C@H]1NC(=O)C[C@H]2/C=C/CCSSC[C@@H](NC1=O)C(=O)N[C@H](Cc1cccc3ccccc13)C(=O)NCC(=O)O2 | Fibroblast growth factor receptor 1 (FGFR1, Homo sapiens, UniProt P11362) | enzyme activity, inhibitor | – | 10 µM | – | inhibition | 9.6% |
| COc1cc(C)[nH]c(=O)c1CNC(=O)c1c(C)n([C@H](C)[C@H]2CC[C@H](N3CC(OC)C3)CC2)c2ccccc12 | EZH2 | binding, jump dilution | – | with: H3K27me3 activating peptide | – | residence time | 150 min |
| Nc1ccn([C@@H]2O[C@H](COP(=O)(O)OP(=O)(O)OP(=O)(O)O)[C@@H](O)[C@H]2O)c(=O)n1 | RNA-directed RNA polymerase PB1, with PA and PB2 (Influenza B virus, UniProt Q5V8Y6) | single-nucleotide incorporation, substrate | – | – | – | Vmax | 0.91 product fraction |
| CC(C)(C)C(=O)OCOP(=O)(OCOC(=O)C(C)(C)C)C1CCCN(O)C1=O (stereo not shown) | SK-MEL-2 | – | – | – | – | GI50 | 1.55 µM |
| CCCCCn1cc(C(=O)c2ccc3c(c2)CC(C)(C)C3)c2ccccc21 | CNR2 | agonist, BRET | – | – | baseline: Gαi1 over β-arrestin 2, reference agonist | bias factor (ΔΔlog(Emax/EC50)) | -0.59 |

A few entries again:
| SMILES | target or system | assay | system | conditions | scale | measurement | result |
| --- | --- | --- | --- | --- | --- | --- | --- |
| Nc1ccn([C@@H]2O[C@H](COP(=O)(O)OP(=O)(O)OP(=O)(O)O)[C@@H](O)[C@H]2O)c(=O)n1 | RNA-directed RNA polymerase PB1, with PA and PB2 (Influenza B virus, UniProt Q5V8Y6) | single-nucleotide incorporation, substrate | – | – | – | Vmax | 0.91 product fraction |
